Results gathered from unrelated publications.
Lines come from different studies, so protocols differ. Numbers after ± are the reported error. Converted amounts (≈) assume the structure as drawn.

| SMILES | assay | system | conditions | how to read | endpoint | result |
| --- | --- | --- | --- | --- | --- | --- |
| COc1ccnc(C(=O)NC(CO)C(=O)O)c1O (racemic) | – | Staffordshire loam sediment, aerobic dark | 20 °C | – | DT50 whole system | 38.3 days |
| OCC1=C[C@@H](O)[C@@H]2C=CO[C@@H](O[C@@H]3O[C@H](CO)[C@@H](O)[C@H](O)[C@H]3O)[C@H]12 | – | rat plasma | 8 ng/mL, 2 weeks, -70 °C, post-preparative stability | – | accuracy | 85.5% |
| COc1ccc2nc([S@@+]([O-])Cc3ncc(C)c(OC)c3C)[nH]c2c1 | – | human male, dried plasma spots | dose not given, mean of (R)- and (S)-enantiomers, together with: rifampicin pretreatment | relative to: control over induction | AUC fold decrease | 10.7 fold |
| Cc1noc(C)c1-c1cc(C(O)(c2ccccn2)c2ccccn2)c2nc(C3CC3)[nH]c2c1 | – | human patients, fasted, plasma | oral, 9 mg once daily, cycle 1 day 8 | – | Ctau | 157 ng/mL |
| O=C(O)CCC(=O)O.[2H]C([2H])([2H])Oc1cc(C)c2[nH]ccc2c1CN1CC[C@@H](C2CC2)C[C@H]1c1ccc(C(=O)O)cc1 | multiple ascending dose | healthy Chinese subjects | 50 mg twice daily | – | subjects with muscle pain TEAE | 0% |
| CC(C)(Sc1ccncc1-c1ccc(C#N)c2ccccc12)C(=O)O | – | human, urine | oral, 2.5 mg, together with: febuxostat 20 mg | – | amount excreted in urine (0-24 h) | 34.1 µg |
| Cc1coc([C@H]2C[C@H]3[C@@H](CF)SC(N)=N[C@@]3(c3ccc(F)cc3F)CO2)n1 | – | male 129/SVE mouse, brain | subcutaneous, 80 mg/kg, 1 h | – | brain concentration | 13.1 µM |
| COc1cc(C(=O)NC2CCN(C)CC2)c(F)cc1Nc1ncc(C(F)(F)F)c(Oc2cccc3c2C(=O)N(C)C3)n1 | – | human patients, urine and plasma | oral, 50 mg single dose, geometric mean | – | renal clearance (0-24 h) | 19.7 mL/min |
| Cc1cc(NC2CCN(C(=O)OC3CCN(C(=O)/C=C/CN(C)C)C3)CC2)n2ncc(C(C)C)c2n1 (stereo not drawn) | – | patients with advanced solid tumours | dose not given, QD arm, grade 3 or higher | – | patients with Hyponatremia | 0% |
| O=C(Nc1cnccc1Cl)N1CCN(Cc2ccc3c(c2)OC(F)(F)O3)CC1 | multiple ascending dose | young men | 75 mg, treatment-emergent adverse events | – | abdominal pain incidence | 33.3% |
| CNC(=O)c1ccc(-c2cnc3ncc(Cc4ccc5ncccc5c4)n3n2)cc1F | measured: Ascites | cancer patients | oral, 600 mg twice daily, all expansion cohorts, grade 3-4 | – | patients with adverse event | 5% |
| COC(=O)C1=CO[C@@H](O[C@@H]2O[C@H](CO)[C@@H](O)[C@H](O)[C@H]2O)[C@@H]2C(CO)=CC[C@H]12 | three freeze-thaw cycles | rat plasma | 8 ng/mL, -70 °C freeze | – | accuracy | 94.8% |
| N#Cc1ccc2c(c1)[C@H]1CCCN(C(=O)c3ccc4[nH]cnc4c3)[C@H]1C2 | – | human males | 240 mg, day 15 | – | total testosterone level | 14.4 nmol/L |
| O=C(c1cccnc1-c1ccncc1)N1CCC(O)(Cc2ccccc2)CC1 | – | healthy Japanese adults, plasma | oral, 300 mg twice daily, day 21 | – | Cmax/dose | 6.88 ng/mL/mg |
| Cn1cc(Nc2nccc(-c3ccc4c(c3)CN(C3COC3)CC[C@H]4NC(=O)c3cn(C(C)(C)C)nn3)n2)cn1 | measured: B cells, memory, non-class-switched | human, clinical trial, whole blood | 150 mg twice daily, follow-up | – | percent change from baseline | -17.4% |
| CC(=O)O[C@H]1C(=O)[C@@]2(C)[C@H]([C@H](OC(=O)c3ccccc3)[C@]3(O)C[C@H](OC(=O)[C@H](O)[C@@H](NC(=O)c4ccccc4)c4ccccc4)C(C)=C1C3(C)C)[C@]1(OC(C)=O)CO[C@@H]1C[C@@H]2O | measured: peripheral neuropathy | patients with advanced solid tumours | intravenous, dose not given, phase Ib, related to compound | – | adverse events, all grades | 15% |
| C=CCN1CC(=O)N2[C@@H](Cc3ccc(O)cc3F)C(=O)N(Cc3cccc(N4CC(N5CCN(CC)CC5)C4)n3)C[C@@H]2N1C(=O)NCc1ccccc1 | – | advanced solid tumour patients | oral, 45 mg twice daily, grade ≥3, dose-escalation | – | treatment-related ALT increased | 0% |
| Cc1c(-c2ccc(N3CCc4cccc(C(=O)Nc5nc6ccccc6s5)c4C3)nc2C(=O)O)cnn1CC12CC3(C)CC(C)(C1)CC(OCCNCC[C@H](O)CO)(C3)C2 | – | beagle dog, male, anaesthetised | intravenous infusion, 0.3 mg/kg/min, 15 (unit not given) | relative to: vehicle | heart rate change | 0% |
| CCC(=O)N(CCC(c1ccc2c(c1)OCO2)c1ccccc1OC)Cc1ccccc1 (stereo not drawn) | – | female athymic nude mouse, blood | i.p., 60 mg/kg twice daily, 14 days, group mean | – | BASO | 0.175% |
| O=C(Nc1nc2cccc(-c3ccc(CN4CCS(=O)(=O)CC4)cc3)n2n1)C1CC1 | measured: food allergy | human rheumatoid arthritis patients | oral, 200 mg once daily, 4 weeks, regardless of relatedness | – | treatment-emergent adverse events | 0% |

| SMILES | assay | system | conditions | how to read | endpoint | result |
| --- | --- | --- | --- | --- | --- | --- |
| c1ccc2c(c1)-c1cccc3c1c-2cc1ccccc13 | – | polyethylene-water partitioning | PAH compilation | relative to: maximum over minimum K | literature range factor | 5 |
| COc1cc(Nc2ncc3c(n2)-c2ccc(Cl)cc2C(c2c(F)cccc2OC)=NC3)ccc1C(=O)O | – | patients | oral, dose not given, grade 4, any attribution, together with: pembrolizumab | – | decreased lymphocyte count incidence | 13% |
| C[C@@H](c1ncncc1F)[C@](O)(Cn1cncn1)c1ccc(F)cc1F | measured: decreased appetite | human | oral, 200 mg | – | drug-related TEAE incidence | 0% |
| C=CC(=O)Nc1cc(Nc2nccc(-c3cn(C)c4ccccc34)n2)c(OC)cc1N(C)CCN(C)C | – | human patients, plasma | dose not given, Q4 exposure quartile, with chemotherapy | – | AUC at steady state | 15.5 to 109 µM·h |
| NC1(C(=O)N[C@@H](CCO)c2ccc(Cl)cc2)CCN(c2nc[nH]c3nccc2-3)CC1 | – | metastatic CRPC patients | dose not given, any grade, treatment-related, all doses, together with: enzalutamide 160 mg daily | – | incidence of Nausea | 46.7% |
| COc1ccc2c(c1)CN(C(=O)CCN1CCC(Cc3ccccc3)CC1)CC[S@@+]2[O-] | telemetry | conscious male beagle dogs | intravenous, NG, 0.5 h | – | PQ interval | 85 ± 3 ms |
| C1=C/COCc2cc(ccc2OCCN2CCCC2)Nc2nccc(n2)-c2cccc(c2)COC/1 | – | Sprague-Dawley rats, male, plasma | oral, dose not given, together with: isavuconazole | relative to: isavuconazole alone | apparent volume of distribution | 54 % decrease |
| Cc1ccc([C@@H]2O[C@H](CO)[C@@H](O)[C@H](O)[C@H]2O)cc1Cc1ccc(-c2ccc(F)cc2)s1 | – | Japanese type 2 diabetes patients | 100 mg, day 4, 24 h urine collection | relative to: baseline | urinary magnesium excretion change | 13.2 mg |
| O=C(O)CCCOc1ccc([18F])cc1-c1cc(-c2ccccc2C(F)(F)F)n(-c2ccccc2)n1 | gamma counting | male ddY mice, kidney | intravenous, 2.1 MBq, 15 min | – | radioactivity uptake | 3.12 ± 0.4 SUV |
| NC(=O)c1cc(Oc2ccc(NC(=O)Nc3ccc(Cl)c(C(F)(F)F)c3)c(F)c2)cc[n+]1[O-] | long-term stability | mouse plasma | 750 ng/mL, 6 months, -80 °C | – | accuracy | 90.4% |
| CNCCOC12CC3(C)CC(C)(CC(Cn4ncc(-c5ccc(N6CCc7cccc(C(=O)Nc8nc9ccccc9s8)c7C6)nc5C(=O)O)c4C)(C3)C1)C2 | – | beagle dog, male, anaesthetised | intravenous bolus, 0.03 mg/kg, 210 min | relative to: baseline | dP/dt at 50 change | -29% |
| CNC(=O)c1ccccc1Nc1cc(Nc2ccc(N3CCOCC3)cc2OC)ncc1C(F)(F)F | – | Capmul MCM | 24 h, 25 °C | – | solubility | 7840 µg/mL (≈ 15.6 mM) |
| CCn1cc(C(=O)N2CCOCC2)c(=O)c2cc(NC3Cc4ccccc4C3)cnc21 | – | human, fasted | oral suspension, 150 mg single dose, arithmetic mean | – | AUC(0-inf) | 1950 ng·h/mL |
| CCN1CCN(Cc2ccc(Nc3ncc(F)c(-c4cc(F)c5nc6n(c5c4)[C@H](C)CCC6)n3)nc2)CC1 | – | human, plasma | 100 mg multiple dosing, mean | – | CL/F | 38.4 L/h |
| C[C@H]1CN(C(=O)CC#N)[C@]12CCN(c1ncnc3[nH]ccc13)C2 | – | healthy adult humans | oral, 1.5 mg single dose | – | participants with TEAEs | 25% |
| CNC(=O)c1ccc(-c2cnc3ncc(Cc4ccc5ncccc5c4)n3n2)cc1F | – | human moderate hepatic impairment NCI | oral, 200 mg single dose, geometric mean | – | AUC(0-inf) | 7280 ng·h/mL |
| CCc1cc(C(=O)NC)c2nccc(N3CCc4c(cc(Cn5ccnc5)cc4-c4cn(C)nc4C(F)(F)F)C3=O)c2c1 | – | Sprague Dawley rats | oral, 100 mg/kg once daily, 7 days | relative to: vehicle | reticulocyte percentage change | -15.6% |
| CN[C@@H]1COc2c(S(=O)(=O)NC(=O)Nc3c4c(cc5c3CCC5)CCC4)cnn2C1 | – | human, urine | oral, 300 mg twice daily, 0-12 h, day 7 | – | amount excreted in urine | 44.5 mg |
| CCOc1c([C@H](C)n2nc(C)c3c(N)ncnc32)cc(Cl)c(F)c1[C@@H]1CNC(=O)C1 | – | patients, monotherapy | oral, 45 mg once daily, cycle 1 day 1 | – | Cmax geometric mean | 3.85 µM |

Excerpt of the above:
| SMILES | assay | system | conditions | how to read | endpoint | result |
| --- | --- | --- | --- | --- | --- | --- |
| CCC(=O)N(CCC(c1ccc2c(c1)OCO2)c1ccccc1OC)Cc1ccccc1 (stereo not drawn) | – | female athymic nude mouse, blood | i.p., 60 mg/kg twice daily, 14 days, group mean | – | BASO | 0.175% |
| O=C(Nc1nc2cccc(-c3ccc(CN4CCS(=O)(=O)CC4)cc3)n2n1)C1CC1 | measured: food allergy | human rheumatoid arthritis patients | oral, 200 mg once daily, 4 weeks, regardless of relatedness | – | treatment-emergent adverse events | 0% |
| c1ccc2c(c1)-c1cccc3c1c-2cc1ccccc13 | – | polyethylene-water partitioning | PAH compilation | relative to: maximum over minimum K | literature range factor | 5 |
